Measurements from different studies.
Every numbered part comes from another study and shows a few of its results, in no order. Substitutions count along the parent as printed.

Series 1
Target: Centromere-binding protein 1, full length, His-tagged (CBF1, Saccharomyces cerevisiae, UniProt P17106, residues 1-351)
Chain of UniProt P17106 (whole entry, looked up): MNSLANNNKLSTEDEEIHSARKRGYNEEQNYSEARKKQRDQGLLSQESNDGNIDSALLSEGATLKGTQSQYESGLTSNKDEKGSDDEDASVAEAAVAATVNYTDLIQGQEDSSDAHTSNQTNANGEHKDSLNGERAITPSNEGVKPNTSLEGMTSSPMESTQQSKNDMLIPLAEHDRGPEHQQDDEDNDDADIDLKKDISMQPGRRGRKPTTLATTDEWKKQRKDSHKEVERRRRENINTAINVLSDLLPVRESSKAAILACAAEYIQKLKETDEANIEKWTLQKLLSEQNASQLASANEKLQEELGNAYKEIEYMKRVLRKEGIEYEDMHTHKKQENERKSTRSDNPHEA
Method: competition protein-binding microarray
Molecule type: double-stranded DNA, one strand shown
Matrix: in vitro
Concentration: 2 µM
Notes: whole 60-bp probe, lowest competitor level
With: Pho4 competitor, 0.05 µM
Reading: higher = stronger binding
Measurement: fluorescence intensity
All sequences stand within: … GTCTTGATTCGCTTGACGCTGCTG
CACTGTTGGCACCTCCACGTGTTGAATTACCAGGGC: 764 a.u.
CCATGCTGTTTCCATCACGTGCAAATAACCTTTTTG: 5510 a.u.
GAGTAACATTACCATCACGCTAGTACTGCTAGATTA: 93.7 a.u.
CTAACGAAGGTTTTTCACGTGACGTACAAGCCAAGT: 3120 a.u.
TCAGGCATCGTCTCTCACGTGAAATCTGTGGGGGCA: 1220 a.u.
TTTTGCTAAAATGAACTTGTGTCGCAAATTCCGTTC: 73.2 a.u.
TGTTGCTGTTCGCGTCAGCTGAGGCTGAGTATCGTT: 88.4 a.u.
CTATTCAAAAGGTTCCACGTTGGCTGTCTACTGACT: 67.8 a.u.
CGTCCTAGTGATTCACACGTGTTTTCCATGAGGAAG: 1070 a.u.
AAATTACTAAGTTGACTAGTGGGTGACGCCGTATGA: 69.4 a.u.

Series 2
Target: Interferon regulatory factor 5, full length, phosphomimetic (IRF5, Homo sapiens, UniProt Q13568-2, residues 1-514, K96S/S451D/S453D/S456D/S462D)
Method: protein-binding microarray
Molecule type: double-stranded DNA, one strand shown
Matrix: in vitro
Concentration: 250 nM
Notes: 60-bp whole probe
With: salmon DNA 0.4 mg/ml
Relative to: random background probes
Reading: higher = stronger binding
Measurement: log fluorescence
All sequences stand within: GCCTAGCAC … GTCTTGATTCGCTTGACGCTGCTG
TCACATTTCACAGTTAAACTGTGCTAG: 1.07 z-score
GACGGACTGGTGACTGGGGACGTGCTA: -0.58 z-score
GACGATTTCGGTTATCGAGACGTGCTA: 7.85 z-score
GACGGTCTCCTTTTCCTGATGTGCTAG: 0.277 z-score
CATCATTGCCTATTTTTCCCCGTGCTA: 0.742 z-score
TCAGTTTTCTAATGTTTTACTGTGCTA: 1.48 z-score
GACGGTATCGGTATCGGGAAGTGCTAG: 7.37 z-score
CTTGATTTTGGTCTTTCTGTGTGCTAG: 1.96 z-score
TCACATTTTTTTTTTCAACTGTGCTAG: 1.1 z-score

Series 3
Target: CCND1, cyclin fold, Cln2 fusion (human)
Method: yeast growth competition, sequencing
Matrix: yeast
Notes: strong parent motif
Relative to: not given
Reading: higher = stronger binding
Measurement: normalised enrichment score
Starting sequence: SCAPER docking peptide (human); SNARRSLNFGGST; partner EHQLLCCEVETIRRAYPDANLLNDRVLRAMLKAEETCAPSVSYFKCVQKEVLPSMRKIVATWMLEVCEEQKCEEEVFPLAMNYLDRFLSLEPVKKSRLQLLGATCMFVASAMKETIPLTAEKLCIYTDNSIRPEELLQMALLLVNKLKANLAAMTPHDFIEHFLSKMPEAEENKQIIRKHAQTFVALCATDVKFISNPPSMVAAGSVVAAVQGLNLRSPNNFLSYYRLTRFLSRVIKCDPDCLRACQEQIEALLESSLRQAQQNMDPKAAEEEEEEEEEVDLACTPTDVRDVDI
CNARRSLNFGGST [S1C]: 0.919
SNARRSLNFGCST [G11C]: 1.01
SNARRSNNFGGST [L7N]: -0.55
WNARRSLNFGGST [S1W]: 0.928
SNARRSLNFGGKT [S12K]: 0.369

Further values, each from its own experiment
PhoQ, residues 284 288 289 292 302 303 SSTLLI  fold induction (PhoP, residues 12 14 15 18 19 SMASL (Escherichia coli, UniProt P23836); Sort-seq, item: YFP reporter; E. coli; PhoQ-PhoP variant library, with: 10 µM Mg2+; relative to: high Mg2+ state, higher = stronger signaling): 10.8

Excerpt of the above (series 3):
WNARRSLNFGGST [S1W]: 0.928
SNARRSNNFGGST [L7N]: -0.55
